# Assay results from different studies.
# Parts stem from different laboratories: compare values within a part only.
# Sequence of UniProt Q9UM73 (whole entry, unmodified, looked up): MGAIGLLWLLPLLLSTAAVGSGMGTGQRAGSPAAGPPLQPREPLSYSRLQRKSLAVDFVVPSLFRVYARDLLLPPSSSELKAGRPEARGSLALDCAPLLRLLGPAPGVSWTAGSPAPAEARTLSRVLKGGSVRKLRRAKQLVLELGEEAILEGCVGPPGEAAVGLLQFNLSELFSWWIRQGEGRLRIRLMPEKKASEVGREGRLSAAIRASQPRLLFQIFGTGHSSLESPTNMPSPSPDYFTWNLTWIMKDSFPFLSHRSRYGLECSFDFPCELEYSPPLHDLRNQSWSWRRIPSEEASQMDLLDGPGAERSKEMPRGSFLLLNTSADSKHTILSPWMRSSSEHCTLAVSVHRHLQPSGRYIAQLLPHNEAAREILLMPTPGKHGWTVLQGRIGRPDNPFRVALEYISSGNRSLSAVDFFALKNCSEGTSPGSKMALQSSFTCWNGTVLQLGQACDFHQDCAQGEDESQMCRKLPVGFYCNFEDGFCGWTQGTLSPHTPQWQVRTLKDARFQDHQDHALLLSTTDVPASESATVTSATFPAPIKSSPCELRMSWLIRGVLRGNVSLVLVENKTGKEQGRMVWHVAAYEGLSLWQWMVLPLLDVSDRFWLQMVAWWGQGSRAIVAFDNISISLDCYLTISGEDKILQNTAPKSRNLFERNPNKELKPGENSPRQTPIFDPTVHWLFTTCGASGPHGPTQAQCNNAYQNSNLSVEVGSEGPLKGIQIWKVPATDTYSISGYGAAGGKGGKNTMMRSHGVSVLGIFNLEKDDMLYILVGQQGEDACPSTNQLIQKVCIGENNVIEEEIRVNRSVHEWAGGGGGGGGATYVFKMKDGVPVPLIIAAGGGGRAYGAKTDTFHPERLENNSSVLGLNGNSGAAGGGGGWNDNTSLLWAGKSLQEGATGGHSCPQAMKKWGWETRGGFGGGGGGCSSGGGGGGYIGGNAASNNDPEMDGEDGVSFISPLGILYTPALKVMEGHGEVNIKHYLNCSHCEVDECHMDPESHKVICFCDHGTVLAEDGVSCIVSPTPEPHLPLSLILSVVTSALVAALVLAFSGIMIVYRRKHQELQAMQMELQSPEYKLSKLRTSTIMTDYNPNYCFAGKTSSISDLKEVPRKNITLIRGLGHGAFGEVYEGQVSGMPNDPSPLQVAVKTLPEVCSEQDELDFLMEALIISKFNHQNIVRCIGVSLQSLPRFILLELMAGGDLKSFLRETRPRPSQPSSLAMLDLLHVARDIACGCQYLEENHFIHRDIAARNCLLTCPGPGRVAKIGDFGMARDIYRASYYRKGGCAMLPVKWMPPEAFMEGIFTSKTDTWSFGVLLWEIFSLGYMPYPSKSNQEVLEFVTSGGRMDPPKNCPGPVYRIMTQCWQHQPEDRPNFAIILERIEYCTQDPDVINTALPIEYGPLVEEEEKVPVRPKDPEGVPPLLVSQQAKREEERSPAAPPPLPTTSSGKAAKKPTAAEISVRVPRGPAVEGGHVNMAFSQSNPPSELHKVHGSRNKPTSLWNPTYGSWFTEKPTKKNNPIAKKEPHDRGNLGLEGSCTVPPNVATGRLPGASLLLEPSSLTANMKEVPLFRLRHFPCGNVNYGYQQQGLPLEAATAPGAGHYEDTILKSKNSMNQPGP
# Sequence of UniProt Q13523 (whole entry, looked up): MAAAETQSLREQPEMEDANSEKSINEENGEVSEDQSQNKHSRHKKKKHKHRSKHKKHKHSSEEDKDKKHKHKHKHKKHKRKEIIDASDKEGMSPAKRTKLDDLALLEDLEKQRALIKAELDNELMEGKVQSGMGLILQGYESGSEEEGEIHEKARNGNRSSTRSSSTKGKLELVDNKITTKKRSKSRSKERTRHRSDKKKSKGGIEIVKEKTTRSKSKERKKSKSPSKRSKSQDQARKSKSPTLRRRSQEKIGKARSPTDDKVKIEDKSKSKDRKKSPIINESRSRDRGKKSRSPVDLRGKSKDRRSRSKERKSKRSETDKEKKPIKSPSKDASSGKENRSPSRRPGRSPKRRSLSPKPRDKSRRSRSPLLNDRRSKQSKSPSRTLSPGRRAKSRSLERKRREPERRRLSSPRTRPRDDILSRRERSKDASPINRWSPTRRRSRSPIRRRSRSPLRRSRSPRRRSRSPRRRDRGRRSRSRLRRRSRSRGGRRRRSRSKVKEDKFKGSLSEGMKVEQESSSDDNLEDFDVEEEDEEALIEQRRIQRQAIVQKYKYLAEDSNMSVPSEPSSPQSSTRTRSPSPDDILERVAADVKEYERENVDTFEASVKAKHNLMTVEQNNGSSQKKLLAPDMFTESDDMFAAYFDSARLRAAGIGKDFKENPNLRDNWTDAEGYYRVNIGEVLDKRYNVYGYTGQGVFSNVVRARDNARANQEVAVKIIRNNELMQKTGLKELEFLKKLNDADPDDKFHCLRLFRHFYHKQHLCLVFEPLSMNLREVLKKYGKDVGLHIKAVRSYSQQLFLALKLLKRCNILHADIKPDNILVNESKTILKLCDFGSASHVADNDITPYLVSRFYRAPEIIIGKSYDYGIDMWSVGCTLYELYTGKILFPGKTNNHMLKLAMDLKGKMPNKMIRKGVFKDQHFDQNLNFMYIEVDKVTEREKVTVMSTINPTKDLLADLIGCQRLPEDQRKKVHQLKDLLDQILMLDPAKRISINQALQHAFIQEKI
# Sequence of UniProt O94806 (whole entry, looked up): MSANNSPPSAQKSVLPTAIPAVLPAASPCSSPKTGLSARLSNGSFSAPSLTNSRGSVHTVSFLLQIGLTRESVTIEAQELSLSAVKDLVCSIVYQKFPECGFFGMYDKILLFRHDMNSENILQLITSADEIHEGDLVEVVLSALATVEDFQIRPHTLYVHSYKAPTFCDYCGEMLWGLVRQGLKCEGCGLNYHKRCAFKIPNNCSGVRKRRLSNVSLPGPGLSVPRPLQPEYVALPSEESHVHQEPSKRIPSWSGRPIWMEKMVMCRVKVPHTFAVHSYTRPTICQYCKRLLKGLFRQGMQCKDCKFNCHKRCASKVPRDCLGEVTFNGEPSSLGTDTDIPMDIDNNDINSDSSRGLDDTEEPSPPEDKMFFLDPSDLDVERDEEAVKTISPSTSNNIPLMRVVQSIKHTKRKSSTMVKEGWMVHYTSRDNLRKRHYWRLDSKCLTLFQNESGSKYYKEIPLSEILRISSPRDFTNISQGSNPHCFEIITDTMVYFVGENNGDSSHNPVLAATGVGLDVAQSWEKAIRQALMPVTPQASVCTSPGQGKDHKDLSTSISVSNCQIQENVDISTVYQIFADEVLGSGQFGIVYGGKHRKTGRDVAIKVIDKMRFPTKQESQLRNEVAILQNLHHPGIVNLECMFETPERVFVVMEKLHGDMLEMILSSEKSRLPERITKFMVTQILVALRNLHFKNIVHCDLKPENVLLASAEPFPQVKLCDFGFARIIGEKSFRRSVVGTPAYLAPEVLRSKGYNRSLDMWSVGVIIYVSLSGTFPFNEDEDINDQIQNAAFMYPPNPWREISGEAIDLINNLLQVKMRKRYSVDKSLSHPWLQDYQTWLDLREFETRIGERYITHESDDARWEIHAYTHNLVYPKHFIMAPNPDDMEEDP
# Sequence of UniProt O96013 (whole entry, looked up): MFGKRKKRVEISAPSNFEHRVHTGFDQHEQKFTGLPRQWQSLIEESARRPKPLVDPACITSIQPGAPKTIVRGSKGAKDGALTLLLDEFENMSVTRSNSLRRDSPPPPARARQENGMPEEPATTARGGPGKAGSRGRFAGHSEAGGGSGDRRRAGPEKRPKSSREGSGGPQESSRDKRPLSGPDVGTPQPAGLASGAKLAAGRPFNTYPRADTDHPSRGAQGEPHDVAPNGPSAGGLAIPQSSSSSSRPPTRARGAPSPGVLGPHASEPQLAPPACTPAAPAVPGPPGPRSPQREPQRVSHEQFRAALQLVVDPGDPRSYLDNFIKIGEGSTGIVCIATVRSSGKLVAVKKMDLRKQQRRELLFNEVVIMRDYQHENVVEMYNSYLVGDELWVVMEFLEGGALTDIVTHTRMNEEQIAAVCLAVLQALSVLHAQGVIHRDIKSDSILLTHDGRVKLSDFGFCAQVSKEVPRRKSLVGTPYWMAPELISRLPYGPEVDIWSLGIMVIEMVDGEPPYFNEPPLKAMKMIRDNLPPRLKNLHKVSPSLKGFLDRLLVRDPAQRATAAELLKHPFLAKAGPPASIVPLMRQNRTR
# Sequence of UniProt O94768 (whole entry, looked up): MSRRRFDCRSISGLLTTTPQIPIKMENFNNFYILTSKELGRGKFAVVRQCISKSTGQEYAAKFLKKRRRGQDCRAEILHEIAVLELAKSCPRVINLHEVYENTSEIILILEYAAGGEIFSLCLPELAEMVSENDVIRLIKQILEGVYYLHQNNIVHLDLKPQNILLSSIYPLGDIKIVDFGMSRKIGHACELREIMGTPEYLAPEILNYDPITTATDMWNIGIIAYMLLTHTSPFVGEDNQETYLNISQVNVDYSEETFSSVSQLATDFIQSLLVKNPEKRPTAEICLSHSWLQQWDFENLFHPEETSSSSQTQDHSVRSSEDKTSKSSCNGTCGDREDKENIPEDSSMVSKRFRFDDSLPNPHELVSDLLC

# Set 1
# Target: Tyrosine-protein kinase HCK (HCK, Homo sapiens, UniProt P08631)
# Sequence of UniProt P08631 (whole entry, looked up): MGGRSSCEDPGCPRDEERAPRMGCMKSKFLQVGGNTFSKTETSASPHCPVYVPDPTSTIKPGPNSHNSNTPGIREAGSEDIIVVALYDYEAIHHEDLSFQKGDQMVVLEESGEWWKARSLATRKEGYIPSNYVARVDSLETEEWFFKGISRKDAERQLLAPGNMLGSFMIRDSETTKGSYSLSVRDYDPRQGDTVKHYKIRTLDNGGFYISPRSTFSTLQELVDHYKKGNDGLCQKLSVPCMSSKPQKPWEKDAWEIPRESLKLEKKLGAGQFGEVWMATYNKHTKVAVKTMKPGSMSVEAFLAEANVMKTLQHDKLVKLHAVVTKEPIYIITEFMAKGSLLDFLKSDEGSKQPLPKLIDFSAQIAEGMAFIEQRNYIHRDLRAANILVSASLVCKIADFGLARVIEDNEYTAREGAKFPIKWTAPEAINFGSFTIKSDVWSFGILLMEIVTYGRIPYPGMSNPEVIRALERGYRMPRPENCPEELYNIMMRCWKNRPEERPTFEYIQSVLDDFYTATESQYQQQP
# Observed: enzyme activity
# Action: inhibitor
# Concentration: 0.5 µM
# Relative to: control
Compound,remaining activity [%]
O=C(Nc1cccc(Nc2cc(Nc3cccc(C(F)(F)F)c3)ncn2)c1)C1CC1,99
Cc1nc(-c2ccccc2)c(-c2ccncc2)o1,98.9
Cc1ccc(Nc2nccc(N(C)c3ccc4c(C)n(C)nc4c3)n2)cc1S(N)(=O)=O,64.8
C#Cc1cccc(Nc2ncnc3cc(OCCOC)c(OCCOC)cc23)c1,74.6
N#CC(C#N)=C(N)/C(C#N)=C/c1ccc(O)cc1,98.6
COc1ccc(C(=O)Nc2sc3c(c2C(N)=O)CCCC3)cc1OC,109
O=S(=O)(c1cccc2cnccc12)N1CCCNCC1,95.9
CCOC(=O)c1c(C)[nH]c(/C=C2\C(=O)Nc3ccccc32)c1C,92.6
Nc1ccc2ncnc(NCCc3ccc(Oc4ccccc4)cc3)c2c1,96.4
Nc1ncnc2n[nH]c(Nc3ccc(F)cc3)c12,90.7
NCCNc1ncc(C(N)=O)c(Nc2cccc(C(F)(F)F)c2)n1,89.7
Cn1c2ccccc2c2c3c(c4c5ccccc5n(CCC#N)c4c21)CNC3=O,96.8
COc1cc2nccc(Oc3ccc(NC(=S)NC(=O)c4ccccc4C)cc3)c2cc1OC,4.93
Cc1cccc(-c2[nH]c(C(C)(C)C)nc2-c2ccc3c(c2)OCO3)n1,90.7
CO[C@H]1C[C@@H]2CC[C@@H](C)[C@@](O)(O2)C(=O)C(=O)N2CCCC[C@H]2C(=O)O[C@H]([C@H](C)C[C@@H]2CC[C@@H](O)[C@H](OC)C2)CC(=O)[C@H](C)/C=C(\C)[C@@H](O)[C@@H](OC)C(=O)[C@H](C)C[C@H](C)/C=C/C=C/C=C/1C,102

# Set 2
# Target: Transcriptional repressor CTCF (CTCF, Homo sapiens, UniProt P49711, residues 1-727, full length assumed)
# Method: protein-binding microarray
# Form: double-stranded DNA, one strand shown
# Matrix: in vitro
# Concentration: not given
# Setting: k-mer, scored over probes, only values ≥0.25
# Direction: higher = stronger binding
# Construct (chain): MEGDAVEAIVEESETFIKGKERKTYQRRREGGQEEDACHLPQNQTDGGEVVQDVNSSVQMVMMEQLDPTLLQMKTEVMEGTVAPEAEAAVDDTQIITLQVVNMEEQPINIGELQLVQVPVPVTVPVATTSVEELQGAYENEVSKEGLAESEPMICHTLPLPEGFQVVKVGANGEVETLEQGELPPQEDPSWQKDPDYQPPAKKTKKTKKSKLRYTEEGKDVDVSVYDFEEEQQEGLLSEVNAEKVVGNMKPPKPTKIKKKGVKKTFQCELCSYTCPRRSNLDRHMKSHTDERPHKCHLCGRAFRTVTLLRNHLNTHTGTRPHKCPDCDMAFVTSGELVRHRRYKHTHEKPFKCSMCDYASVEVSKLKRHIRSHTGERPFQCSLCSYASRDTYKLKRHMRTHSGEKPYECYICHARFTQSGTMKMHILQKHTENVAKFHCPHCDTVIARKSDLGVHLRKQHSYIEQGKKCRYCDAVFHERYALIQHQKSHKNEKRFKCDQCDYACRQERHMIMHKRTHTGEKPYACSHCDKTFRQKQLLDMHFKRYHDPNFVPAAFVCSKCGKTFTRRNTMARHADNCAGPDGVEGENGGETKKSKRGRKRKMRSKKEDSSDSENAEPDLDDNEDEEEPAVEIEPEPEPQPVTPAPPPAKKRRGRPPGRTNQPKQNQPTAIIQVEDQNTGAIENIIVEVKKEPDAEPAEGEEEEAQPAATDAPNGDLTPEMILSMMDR
Oligonucleotide,E-score
TTGTACAA,0.265
AAAAAACG,0.306
GCGGCGCC,0.305
GATATTAA,0.262
AATAATGG,0.254
CATATATA,0.316
AAGAACAA,0.253
ATTACGTA,0.27

# Set 3
# Structure (SMILES): CCS(=O)(=O)c1cc2cc(C[C@@](O)(CC(C)(C)c3ccc(F)cc3C(N)=O)C(F)(F)F)[nH]c2cn1
# Observed: cell-free assay
# Method: competition with immobilised ligand
# Concentration: 1 µM
target,remaining binding [%]
"Serine/threonine-protein kinase PRP4 homolog (PRPF4B, Homo sapiens, UniProt Q13523)",80
"Tyrosine-protein kinase BTK (BTK, Homo sapiens, UniProt Q06187)",100
"Serine/threonine-protein kinase SBK1 (SBK1, Homo sapiens, UniProt Q52WX2)",94
"Tyrosine-protein kinase SYK (SYK, Homo sapiens, UniProt P43405)",92
"Tyrosine-protein kinase FRK (FRK, Homo sapiens, UniProt P42685)",100
"Ephrin type-A receptor 5 (EPHA5, Homo sapiens, UniProt P54756)",100
"Serine/threonine-protein kinase PAK 4 (PAK4, Homo sapiens, UniProt O96013)",88
"ALK tyrosine kinase receptor (ALK, Homo sapiens, UniProt Q9UM73)",100
"Serine/threonine-protein kinase Nek6 (NEK6, Homo sapiens, UniProt Q9HC98)",100
"ALK tyrosine kinase receptor (ALK, Homo sapiens, UniProt Q9UM73, C1156Y)",100
"Serine/threonine-protein kinase 17B (STK17B, Homo sapiens, UniProt O94768)",76
"Serine/threonine-protein kinase D3 (PRKD3, Homo sapiens, UniProt O94806)",100
"Bone morphogenetic protein receptor type-1B (BMPR1B, Homo sapiens, UniProt O00238)",55

# Further values, each from its own experiment
# Method: cross-linking MS
# Matrix: cell fractions
# CGN: CGN (Homo sapiens, UniProt Q9P2M7)
Substance,partner,conditions,cross-linked residues
"DOCK7 (Homo sapiens, UniProt Q96N67)","SIKE1 (Homo sapiens, UniProt Q9BRV8)",added: DSSO,S1035 to K7
"ATP2B1 (Homo sapiens, UniProt P20020)",CGN,added: DSSO,S642 to K384
"ZC3H13 (Homo sapiens, UniProt Q5T200)","ABHD10 (Homo sapiens, UniProt Q9NUJ1)",added: DMTMM,K285 to D62
"EIF2S3 (Homo sapiens, UniProt P41091)",CGN,added: DSSO,S198 to T472
